Published values pooled from the literature.
A part holds a random share of what one study measured. Changes are numbered by the printed parent chain.

Block 1
Target: ATF3, bZIP domain (human)
Method: DHFR protein complementation
Sample: yeast
Setting: single substitutions, most at no-binding floor
Relative to: wild-type JUN-FOS pair
Reading: higher = stronger binding
Starting sequence: JUN, bZIP domain (human); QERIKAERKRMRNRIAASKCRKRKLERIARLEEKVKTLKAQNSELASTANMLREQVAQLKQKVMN; partner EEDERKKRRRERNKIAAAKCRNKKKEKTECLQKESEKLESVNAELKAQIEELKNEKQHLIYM
`N42R` gave a binding fitness of -0.373 natural log.
With `I28K` the binding fitness was -0.185 natural log.
With `E54G` the binding fitness was -0.173 natural log.
For `E32D`, the binding fitness was -0.271 natural log.
For `E44N`, the binding fitness was -0.362 natural log.
For `N42G`, the binding fitness was -0.431 natural log.
`L45R` has a binding fitness of -1.3 natural log.
The binding fitness of `N42I` is reported as -1.11 natural log.

Block 2
Target: ABI1, truncated, D143A, DHFR fusion (Arabidopsis thaliana)
Method: DHFR PCA, deep sequencing
Sample: yeast
Setting: methotrexate growth selection, single substitutions
With: (+)-ABA 0.032 µM
Relative to: wild-type fitted maximum
Reading: higher = stronger binding
Starting sequence: PYL1, truncated, DHFR fusion (Arabidopsis thaliana); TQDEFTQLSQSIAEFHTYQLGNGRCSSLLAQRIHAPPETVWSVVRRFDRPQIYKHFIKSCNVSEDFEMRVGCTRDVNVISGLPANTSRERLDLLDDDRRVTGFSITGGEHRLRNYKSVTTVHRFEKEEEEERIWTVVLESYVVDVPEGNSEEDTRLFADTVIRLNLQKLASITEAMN; partner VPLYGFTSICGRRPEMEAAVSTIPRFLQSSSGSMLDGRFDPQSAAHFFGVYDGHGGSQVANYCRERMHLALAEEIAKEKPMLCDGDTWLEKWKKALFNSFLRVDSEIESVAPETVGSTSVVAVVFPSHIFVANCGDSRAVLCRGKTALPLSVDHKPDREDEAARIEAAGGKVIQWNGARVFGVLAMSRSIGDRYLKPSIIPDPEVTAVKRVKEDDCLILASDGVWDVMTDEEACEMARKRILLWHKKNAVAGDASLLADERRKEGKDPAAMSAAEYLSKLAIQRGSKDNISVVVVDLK
`F157S` — result for “relative binding score”: 5.82%.
`Q167E`: “relative binding score” 33.6%.
`G148T` — result for “relative binding score”: -2.54%.
`P83S`: “relative binding score” 26.1%.
Under “relative binding score”, `E128S` is recorded as 34.8%.
`E129R` — result for “relative binding score”: 20.5%.
`S27W`: “relative binding score” 4.64%.
For `E125Q`, “relative binding score” read 48.2%.

Block 3
Target: Ras GTPase-activating protein-binding protein 1, full length (G3BP1, Homo sapiens, UniProt Q13283)
Chain of UniProt Q13283 (whole entry, looked up): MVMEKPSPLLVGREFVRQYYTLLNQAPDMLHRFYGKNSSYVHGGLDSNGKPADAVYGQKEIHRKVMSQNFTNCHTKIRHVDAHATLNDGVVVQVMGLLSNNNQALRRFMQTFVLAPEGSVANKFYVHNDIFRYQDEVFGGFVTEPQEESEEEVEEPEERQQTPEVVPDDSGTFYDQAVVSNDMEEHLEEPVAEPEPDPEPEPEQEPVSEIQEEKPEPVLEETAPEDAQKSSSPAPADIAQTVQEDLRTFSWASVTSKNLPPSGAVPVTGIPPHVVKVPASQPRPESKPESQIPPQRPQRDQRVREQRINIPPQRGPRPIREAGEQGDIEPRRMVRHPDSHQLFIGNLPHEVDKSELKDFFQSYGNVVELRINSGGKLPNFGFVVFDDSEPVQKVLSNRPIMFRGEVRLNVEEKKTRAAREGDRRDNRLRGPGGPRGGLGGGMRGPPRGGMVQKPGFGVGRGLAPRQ
Method: RNA Bind-n-Seq
Form: RNA
Sample: in vitro
Concentration: 200 nM
Setting: whole 134-nt RNA, ends assumed
With: 150 mM KCl
Relative to: input library
Reading: higher = stronger binding
`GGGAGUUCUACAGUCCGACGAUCUCCUGUGCUACACAUCGUAUGUACCGAAUCGGGGCCCCCGGGCCCCCGGGGCCCCCGGGAAAGUAUUAUGUUACGCCGUUCGGAUCUGCAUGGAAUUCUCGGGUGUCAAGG` gave a log2 enrichment of -1.18.
`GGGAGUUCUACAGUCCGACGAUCACCAUGCAGGUGGGCAUCUUUGGGAAGUGGGGCAAGGGGGGGAUAGGGAGGGGGGUAACACUUUGGGAACAGGUGGACCCAGGUCGUUUCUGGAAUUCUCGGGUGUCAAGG` has a log2 enrichment of 1.09.
The log2 enrichment of `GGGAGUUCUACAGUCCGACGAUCAAGUCCUGUGCUACACAUCGUAUGUACCGAAUCGGAAAAAAAGGAGGUUUUUUUGGAAAGUAUUAUGUUACGCCGUUCGGAUCUGCACUUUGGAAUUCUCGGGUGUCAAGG` is reported as -1.15.
With `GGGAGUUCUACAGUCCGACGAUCUGGGAGGUGGAUUUUGUUUAUUUUUUUAGCUCAUUUCCAGGUGUGGGAAUUUUUUUUUAAUAUGUGUCAUGAAUAAAGUUGUUUUUGAAAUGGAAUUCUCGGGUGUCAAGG` the log2 enrichment was -0.12.
`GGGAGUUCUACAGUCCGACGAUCUCCUGUGCUACACAUCGUAUGUACCGAAUCGGGUUUGGGUUUUUUUGGGAAAAAAAGGGAAAGUAUUAUGUUACGCCGUUCGGAUCUGCAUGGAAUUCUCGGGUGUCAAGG` has a log2 enrichment of -0.158.
The log2 enrichment of `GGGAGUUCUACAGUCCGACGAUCCACAGACAACACGCACCCACACAGACACAGAGGGAAGGGGUUGGGAUGGGGACAGGGUGCAUAGCAGGGCGGGGUAGGACCCCAGCCCCUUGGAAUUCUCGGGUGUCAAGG` is reported as 1.74.
`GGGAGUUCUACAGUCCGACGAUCCUCAAGUCCUGUGCUACACAUCGUAUGUACCGAAUCGGUUGGGGUUGGGUUGGGAAAGUAUUAUGUUACGCCGUUCGGAUCUGCACUUCCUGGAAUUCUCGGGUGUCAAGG` gave a log2 enrichment of 0.984.
`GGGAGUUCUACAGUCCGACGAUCAAGUCCUGUGCUACACAUCGUAUGUACCGAAUCGGGGCCCCGGGCCCCGGGCCCCGGAAAGUAUUAUGUUACGCCGUUCGGAUCUGCACUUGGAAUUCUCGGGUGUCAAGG` gave a log2 enrichment of -1.14.
With `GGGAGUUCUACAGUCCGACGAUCCUGUGCUACACAUCGUAUGUACCGAAUCGGGGUUUUUUUGGGGAAAAAAAGGGGUUUGGGGAAAGUAUUAUGUUACGCCGUUCGGAUCUGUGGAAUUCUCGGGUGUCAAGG` the log2 enrichment was -0.233.
`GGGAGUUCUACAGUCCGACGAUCCUCAAGUCCUGUGCUACACAUCGUAUGUACCGAAUCGGGUUGGUUGGUUGGGGAAAGUAUUAUGUUACGCCGUUCGGAUCUGCACUUCCAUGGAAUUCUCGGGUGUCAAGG` gave a log2 enrichment of -0.0542.
With `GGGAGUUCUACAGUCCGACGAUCUGGCCCUGGUGGCAUGCGGGGAGGAAGAGGUGGCCUCAUGGAUCGUGGUGGUCCCGGUGGAAUGUUCAGAGGUGGCCGCGGUGGAGACAGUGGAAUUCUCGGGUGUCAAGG` the log2 enrichment was 0.0846.

Mixed results
For `PhoQ, residues 284 288 289 292 302 303 GTAMQF`, the fold induction was 24.2 (PhoP, residues 12 14 15 18 19 IFFTR (Escherichia coli, UniProt P23836); Sort-seq, measured: YFP reporter; E. coli; PhoQ-PhoP variant library, with: 10 µM Mg2+; relative to: high Mg2+ state, higher = stronger signaling).
